Experimental data gathered from unrelated publications.
Each line is one published result; not all experiments were run side by side. ± gives the spread as reported.
Chain of UniProt P21554 (whole entry, unmodified, looked up): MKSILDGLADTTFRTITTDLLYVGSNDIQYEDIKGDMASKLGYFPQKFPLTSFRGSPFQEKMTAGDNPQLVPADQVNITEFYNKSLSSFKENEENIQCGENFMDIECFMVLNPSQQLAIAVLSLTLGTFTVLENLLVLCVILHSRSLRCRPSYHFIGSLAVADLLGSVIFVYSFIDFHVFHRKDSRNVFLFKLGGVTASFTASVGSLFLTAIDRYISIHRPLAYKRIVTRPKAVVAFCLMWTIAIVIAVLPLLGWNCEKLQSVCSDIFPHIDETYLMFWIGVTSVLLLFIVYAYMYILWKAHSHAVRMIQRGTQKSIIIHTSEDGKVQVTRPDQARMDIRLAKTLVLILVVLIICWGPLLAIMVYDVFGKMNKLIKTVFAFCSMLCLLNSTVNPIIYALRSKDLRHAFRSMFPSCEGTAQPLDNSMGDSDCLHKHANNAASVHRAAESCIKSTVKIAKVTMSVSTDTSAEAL
Chain of UniProt P41143 (whole entry, unmodified, looked up): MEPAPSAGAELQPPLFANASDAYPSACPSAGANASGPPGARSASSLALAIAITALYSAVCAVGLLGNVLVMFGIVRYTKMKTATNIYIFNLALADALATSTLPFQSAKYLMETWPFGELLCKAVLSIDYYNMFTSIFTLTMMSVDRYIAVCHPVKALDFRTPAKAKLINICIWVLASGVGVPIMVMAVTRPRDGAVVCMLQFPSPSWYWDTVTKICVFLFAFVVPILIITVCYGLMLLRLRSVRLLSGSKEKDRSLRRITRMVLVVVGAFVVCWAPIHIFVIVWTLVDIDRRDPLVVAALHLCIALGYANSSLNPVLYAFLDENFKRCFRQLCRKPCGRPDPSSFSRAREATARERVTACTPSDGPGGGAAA
Chain of UniProt P08631 (whole entry, unmodified, looked up): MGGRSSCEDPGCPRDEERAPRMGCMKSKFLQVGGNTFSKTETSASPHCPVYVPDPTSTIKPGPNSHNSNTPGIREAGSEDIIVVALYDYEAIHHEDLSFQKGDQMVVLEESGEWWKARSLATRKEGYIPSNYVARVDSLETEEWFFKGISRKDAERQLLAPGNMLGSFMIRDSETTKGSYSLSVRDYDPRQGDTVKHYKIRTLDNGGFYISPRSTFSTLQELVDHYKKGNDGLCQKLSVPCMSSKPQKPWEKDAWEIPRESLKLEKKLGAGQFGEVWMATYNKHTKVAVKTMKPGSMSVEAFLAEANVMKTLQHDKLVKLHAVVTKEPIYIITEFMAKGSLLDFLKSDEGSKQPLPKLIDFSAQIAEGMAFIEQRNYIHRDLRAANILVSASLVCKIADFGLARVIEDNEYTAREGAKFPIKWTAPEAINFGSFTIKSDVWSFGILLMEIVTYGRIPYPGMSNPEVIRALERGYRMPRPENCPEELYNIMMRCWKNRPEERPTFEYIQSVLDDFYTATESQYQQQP
Chain of UniProt P28335 (whole entry, looked up): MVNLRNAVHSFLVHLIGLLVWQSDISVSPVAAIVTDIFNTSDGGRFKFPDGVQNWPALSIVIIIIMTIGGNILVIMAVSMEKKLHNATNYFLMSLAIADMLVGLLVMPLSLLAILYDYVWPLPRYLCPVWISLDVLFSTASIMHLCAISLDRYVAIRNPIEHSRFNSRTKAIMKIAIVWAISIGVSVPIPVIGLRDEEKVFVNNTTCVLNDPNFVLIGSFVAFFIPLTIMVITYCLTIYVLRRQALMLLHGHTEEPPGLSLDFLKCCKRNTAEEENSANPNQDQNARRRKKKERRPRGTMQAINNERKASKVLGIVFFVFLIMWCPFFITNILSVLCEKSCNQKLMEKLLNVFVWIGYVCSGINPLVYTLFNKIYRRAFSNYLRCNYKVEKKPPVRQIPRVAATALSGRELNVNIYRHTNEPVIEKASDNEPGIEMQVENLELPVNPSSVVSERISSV
Chain of UniProt Q01959 (whole entry, unmodified, looked up): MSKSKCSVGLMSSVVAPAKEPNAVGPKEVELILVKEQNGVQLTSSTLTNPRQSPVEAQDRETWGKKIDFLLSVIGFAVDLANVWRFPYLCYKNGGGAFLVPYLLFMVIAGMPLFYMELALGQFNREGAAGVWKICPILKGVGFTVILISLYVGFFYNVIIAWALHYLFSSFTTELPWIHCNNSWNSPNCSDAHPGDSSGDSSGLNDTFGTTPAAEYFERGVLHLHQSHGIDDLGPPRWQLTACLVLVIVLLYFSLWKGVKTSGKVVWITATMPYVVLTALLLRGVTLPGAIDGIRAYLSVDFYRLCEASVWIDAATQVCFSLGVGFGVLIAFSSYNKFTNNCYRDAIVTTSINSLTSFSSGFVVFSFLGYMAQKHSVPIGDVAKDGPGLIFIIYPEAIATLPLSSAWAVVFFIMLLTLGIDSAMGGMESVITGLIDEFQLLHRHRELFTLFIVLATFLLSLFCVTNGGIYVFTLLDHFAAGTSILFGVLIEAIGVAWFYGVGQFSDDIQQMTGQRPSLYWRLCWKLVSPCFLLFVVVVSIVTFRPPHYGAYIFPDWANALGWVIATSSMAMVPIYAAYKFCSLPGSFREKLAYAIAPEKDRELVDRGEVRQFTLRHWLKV
Chain of UniProt P49662 (whole entry, looked up): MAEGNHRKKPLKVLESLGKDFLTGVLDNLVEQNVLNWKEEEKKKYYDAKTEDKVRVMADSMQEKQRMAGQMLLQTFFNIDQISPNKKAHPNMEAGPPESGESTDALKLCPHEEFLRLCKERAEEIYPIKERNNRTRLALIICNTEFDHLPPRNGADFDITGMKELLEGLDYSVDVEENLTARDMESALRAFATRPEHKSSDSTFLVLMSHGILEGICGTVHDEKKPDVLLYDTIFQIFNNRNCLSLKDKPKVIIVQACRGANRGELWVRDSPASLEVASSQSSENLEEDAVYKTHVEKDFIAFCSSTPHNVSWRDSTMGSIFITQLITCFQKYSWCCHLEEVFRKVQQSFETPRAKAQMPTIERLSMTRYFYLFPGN

| Structure (SMILES) | target | assay | conditions | quantity | result |
| --- | --- | --- | --- | --- | --- |
| Nc1ncnc2c1c(-c1ccc(Oc3ccccc3)cc1)nn2C1CCCC1 | SRC (Gallus gallus, UniProt P00523, Y527F) | enzyme activity, inhibitor |  | Ki | 0.11 µM |
| CCCCCn1cc(C(=O)c2ccc3ccccc3c2)c2ccccc21 | CNR1 (Homo sapiens, UniProt P21554, I267L/L193I/L359V) | cAMP inhibition, agonist, CAMYEL BRET biosensor | with: forskolin 10 µM | EC50 | 0.055 µM |
| CC(C)n1nc(-c2ccc3cc(OCc4cccc(Cl)c4)ccc3c2)c2c(N)ncnc21 | HCK (Homo sapiens, UniProt P08631, Q523E/Q524E/Q525I) | enzyme activity, inhibitor |  | Ki | < 0.01 µM |
| O=[N+]([O-])CC(c1ccco1)c1c(-c2ccccc2)[nH]c2ccccc12 (stereo not shown) | CNR1 (Homo sapiens, UniProt P21554, I169A) | G protein activation, agonist, BRET |  | EC50 | > 1000 µM |
| CC(C)CC(C(=O)N1CC2(CC1C#N)C(=O)Nc1ccccc12)N(C)C(=O)c1cc2c(F)cc(F)c(F)c2[nH]1 (stereo not shown) | Caspase-4 (CASP4, Homo sapiens, UniProt P49662) | enzyme activity, inhibitor |  | IC50 | > 100 µM |
| CCN(CC)C(=O)c1ccc(C(c2cccc(O)c2)N2CC(C)N(Cc3ccccc3)CC2C)cc1 (stereo not shown) | OPRD1 (Homo sapiens, UniProt P41143, V217A) |  |  | Ki | 0.00076 ± 0.00024 µM |
| CCN(CC)C(=O)[C@@H]1C=C2c3cccc4c3c(cn4C(=O)c3ccco3)C[C@H]2N(C)C1 | HTR2C (Homo sapiens, UniProt P28335) | ligand displacement, radioligand |  | Ki | 0.125 µM |
| CCCCCn1cc(C(=O)c2cccc3ccccc23)c2ccccc21 | CNR1 (Homo sapiens, UniProt P21554, F177A) | cAMP, agonist, BRET |  | EC50 | 0.0151 µM |
| Cc1ccc2c(C(C[N+](=O)[O-])c3cccs3)c(-c3ccccc3)[nH]c2c1 (stereo not shown) | CNR1 (Homo sapiens, UniProt P21554, I245F) | β-arrestin recruitment, agonist, luciferase |  | EC50 | 0.11 µM |
| CCC[C@@H](C(=O)c1ccccc1)N1CCCC1 | SLC6A3 (Homo sapiens, UniProt Q01959, F76Y) | transporter uptake, inhibitor, radiometric |  | Ki | 0.064 µM |

A few entries again:
| Structure (SMILES) | target | assay | conditions | quantity | result |
| --- | --- | --- | --- | --- | --- |
| CCCCCn1cc(C(=O)c2ccc3ccccc3c2)c2ccccc21 | CNR1 (Homo sapiens, UniProt P21554, I267L/L193I/L359V) | cAMP inhibition, agonist, CAMYEL BRET biosensor | with: forskolin 10 µM | EC50 | 0.055 µM |
